Experimental data pooled from the literature.
Lines come from different studies, so protocols differ. Numbers after ± are the reported error.
Cell line: HT-29

The GI50 of `CS(=O)(=O)N1CCN(Cc2cc3nc(-c4cccc5[nH]ncc45)nc(N4CCOCC4)c3s2)CC1` is reported as 0.25 µM (cell growth or viability, SRB; 72 h).
`KSPNPRF (Cy5.5-labelled)` — result for “association rate constant”: 0.14 min⁻¹ (flow cytometry; peptide; 5 µM, 4 °C, Cy5.5 labelled).
`COc1ccccc1-c1cc(-c2cccc(Br)c2)nc2nc[nH]c(=O)c12` has an inhibition of 98% (cell growth or viability; 50 µM).
For `Cn1c(=O)n(-c2ccc(C(C)(C)C#N)cc2)c2c3cc(-c4cnc5ccccc5c4)ccc3ncc21`, the GI50 was 0.014 µM (cell growth or viability, SRB; 72 h).
`Cc1nc(Nc2ncc(C(=O)Nc3c(C)cccc3Cl)s2)cc(N2CCN(CCO)CC2)n1` gave a maximum inhibition of 22% (IL-8 secretion; 1 µg/mL, together with: IL-1β 1000 ng/mL).
For `N=C(N)NCCC[C@H](NC(=O)[C@@H](N)CCC(N)=O)C(=O)N[C@@H](Cc1c[nH]cn1)C(=O)N[C@@H](CCCCN)C(=O)N1CCC[C@H]1C(=O)N[C@@H](CCCNC(=N)N)C(=O)N[C@@H](CCC(=O)O)C(=O)NCC(=O)NCC(=O)NCC(=O)NCC(=O)N[C@@H](CO)C(=O)N[C@@H](CCCCNC(=O)c1ccc(Oc2ccc3c4nc5nc(nc6[nH]c(nc7nc(nc([nH]4)c3c2)-c2ccccc2-7)c2ccccc62)-c2ccccc2-5)cc1)C(N)=O`, “intracellular fluorescence increase” read 3 fold (2 µM, 10 min plus 6 h, 37 °C; baseline: 10 min uptake only).
`CCOc1ccccc1-c1cc(-c2cccc(Br)c2)nc(N)c1C#N` gave an inhibition of 78.7% (cell growth or viability; 50 µM).
For `CC(C)CN(C(=O)c1cccnc1)c1c2ccccc2c(=O)n2c1[nH]c1ccccc12`, the GI50 was ~20 µM (cell growth or viability, MTT).
`Cc1[nH]c(=O)c(C#N)cc1-c1ccncc1` gave an inhibition of 10% (cell growth or viability; 50 µM).
The GI50 of `NS(=O)(=O)c1ccc(Nc2nc(OCC3CCCCC3)c3nc[nH]c3n2)cc1` is reported as 13.3 ± 3.4 µM (cell growth, SRB; 72 h).

Repeated from above:
The GI50 of `NS(=O)(=O)c1ccc(Nc2nc(OCC3CCCCC3)c3nc[nH]c3n2)cc1` is reported as 13.3 ± 3.4 µM (cell growth, SRB; 72 h).
